Assay results from different studies.
Protocols differ between the studies behind these lines. Several values in a cell are separate wells, animals, samples, runs or records.
Target: Alpha-2A adrenergic receptor (ADRA2A, Homo sapiens, UniProt P08913)
UniProt P08913, sequence (whole entry, looked up): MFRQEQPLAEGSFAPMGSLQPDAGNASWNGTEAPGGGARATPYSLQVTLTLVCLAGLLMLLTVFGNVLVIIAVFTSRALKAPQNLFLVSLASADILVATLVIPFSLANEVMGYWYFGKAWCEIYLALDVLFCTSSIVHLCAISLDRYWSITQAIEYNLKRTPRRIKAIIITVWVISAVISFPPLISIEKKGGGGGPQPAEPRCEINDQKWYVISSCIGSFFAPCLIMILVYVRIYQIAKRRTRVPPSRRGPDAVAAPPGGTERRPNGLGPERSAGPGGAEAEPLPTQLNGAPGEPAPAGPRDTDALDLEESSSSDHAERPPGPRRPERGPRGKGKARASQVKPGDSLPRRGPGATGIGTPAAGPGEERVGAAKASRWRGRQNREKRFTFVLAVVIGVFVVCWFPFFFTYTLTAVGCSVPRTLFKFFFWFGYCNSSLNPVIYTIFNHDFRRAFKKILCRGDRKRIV

| Compound | assay | setting | scale | quantity | result |
| --- | --- | --- | --- | --- | --- |
| Cc1cc(Nc2nc(C[C@@]3(C(=O)O)CCN(Cc4cccc(Cl)c4F)[C@H](C)C3)cc(C)c2F)[nH]n1 | agonist | 10 µM |  | activation | -0.63% |
| Cc1cc(-c2ccc3ccccc3c2)nnc1NCCN1CCN(C)CC1 | antagonist | 10000 nM | relative to: control | activity | 0% |
| N[C@H](C(=O)N1CCCC1)C1CCN(c2nccc3c(-c4ncc(Cl)cc4Cl)cccc23)CC1 | functional response, agonist | 10 µM |  | response | 0% |
| CCO[C@H]1[C@H](O)[C@@H](N)[C@@H](O[C@H]2[C@H](O[C@@H]3O[C@H](CO)[C@@H](O[C@H]4O[C@@H](CN)[C@@H](O)[C@H](O)[C@H]4N)[C@H]3O)[C@@H](O)[C@H](N)C[C@@H]2N)O[C@@H]1CO | radioligand binding | 10 µM, 1% DMSO |  | specific binding | 1% |
| C[C@@H]1COCCN1c1nc(NCc2cccnc2C(F)(F)F)c2cccnc2n1 | binding | CEREP panel |  | IC50 | > 100 µM |
| C/C(=N\OCCCN1CCCCC1)c1ccc(C(F)(F)F)cc1 | antagonist, IP-One | 10 µM |  | inhibition | 10.6% |
| CCc1nnc(-c2c(OC)cc(-c3cnc4cc(-c5cnn(C)c5)ccn34)cc2OC)o1 | antagonist radioligand, radioligand binding | 10 µM, SafetyScreen44 alpha 2 A mean | lower = stronger displacement | remaining binding | 107% |
| O=C(O)c1ccc(-c2nc(-c3ccccc3Cl)c3sccn23)cc1 | radioligand binding | 10 µM, added: yohimbine | relative to: control | specific binding | 98.8% and 95.1% |
| CN[C@@H]1[C@H](O)[C@H](NC)[C@H]2O[C@]3(O)[C@H](O[C@@H]2[C@H]1O)O[C@H](C)C[C@H]3NC(=O)Cc1cc(Cl)ccn1 | ligand displacement, radioligand | 10 µM |  | inhibition | 0% |
| Cc1ccc2c(n1)c(-c1cccc(S(C)(=O)=O)c1)c(C)n2C/C(F)=C/CN | ligand displacement, radioligand | 10 µM |  | inhibition | 65% |

Excerpt of the above:
| Compound | assay | setting | scale | quantity | result |
| --- | --- | --- | --- | --- | --- |
| CCO[C@H]1[C@H](O)[C@@H](N)[C@@H](O[C@H]2[C@H](O[C@@H]3O[C@H](CO)[C@@H](O[C@H]4O[C@@H](CN)[C@@H](O)[C@H](O)[C@H]4N)[C@H]3O)[C@@H](O)[C@H](N)C[C@@H]2N)O[C@@H]1CO | radioligand binding | 10 µM, 1% DMSO |  | specific binding | 1% |
